Assay results from different studies.
Lines come from different studies, so protocols differ.
Target: 5-hydroxytryptamine receptor 6 (HTR6, Homo sapiens, UniProt P50406)
Sequence of UniProt P50406 (whole entry, looked up): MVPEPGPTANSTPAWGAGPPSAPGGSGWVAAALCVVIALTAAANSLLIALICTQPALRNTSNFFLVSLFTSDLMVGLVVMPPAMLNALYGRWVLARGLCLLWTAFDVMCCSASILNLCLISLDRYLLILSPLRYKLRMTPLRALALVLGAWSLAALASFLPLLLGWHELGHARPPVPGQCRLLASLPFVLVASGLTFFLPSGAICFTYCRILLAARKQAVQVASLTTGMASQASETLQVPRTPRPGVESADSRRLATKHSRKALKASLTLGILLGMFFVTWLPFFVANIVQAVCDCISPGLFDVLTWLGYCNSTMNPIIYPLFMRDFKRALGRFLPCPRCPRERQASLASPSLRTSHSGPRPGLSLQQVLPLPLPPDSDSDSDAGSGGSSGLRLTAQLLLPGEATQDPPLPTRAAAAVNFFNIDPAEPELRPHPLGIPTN

c1ccc(OC[C@H]2CN(CCN3CCc4ccccc43)CCO2)nc1  inhibition (radioligand binding; concentration not given, with: [3H]LSD): 27.2%
CCC(=O)N(C)c1ccc(Cl)c(Cl)c1  inhibition (ligand displacement, radioligand; 10 µM): < 10%
CC1Cc2ccccc2N1C(=O)CN1CCN(Cc2ccccc2)CC1 (stereo not drawn)  inhibition (radioligand binding; concentration not given, with: [3H]LSD): 23.4%
COc1ccc(C(=O)Nc2c(-c3cccs3)nc3ccccn23)cc1  inhibition (ligand displacement, radioligand; 10 µM): < 50%
CO[C@@H](C)c1c(NC(=O)Nc2cnc(-n3nccn3)c(C(F)(F)F)c2)cnc2sc(C)nc12  inhibition (ligand displacement, radioligand; 10 µM): -7.8%
O=C1c2sc(-c3ccc(N4CCC(F)C4)nc3F)nc2CCN1c1cccnc1 (stereo not drawn)  inhibition (ligand displacement, radioligand; 1 µM): 3%
Brc1ccccc1-c1nnc(CSc2nnnn2-c2ccccc2)o1  inhibition (ligand displacement, radioligand; 10 µM): 35%
Cc1ccnc(OC[C@H]2CN(CCN3CCc4ccccc43)CCO2)c1  inhibition (radioligand binding; concentration not given, with: [3H]LSD): 12.3%
CNC(=O)C[C@H](Cc1ccc(C#N)cc1)NC(=O)c1cc(-c2ccc(CN[C@H](C)c3ccc(C)cc3)o2)ccc1Cl  inhibition (agonist response, antagonist; human cells; 10 µM, 5-HT6 antagonist): 11%
